Results gathered from unrelated publications.
Lines come from different studies, so protocols differ. Numbers after ± are the reported error.

SMILES	cell line	assay	setting	IC50
CC(C)C[C@H](NC(=O)[C@H](CCCCN)NC(=O)[C@H](CC(C)C)NC(=O)[C@H](CC(C)C)NC(=O)[C@H](CCCCN)NC(=O)[C@H](CCCCN)NC(=O)[C@H](CC(C)C)NC(=O)[C@H](CC(C)C)NC(=O)[C@H](CCCCN)NC(=O)[C@H](CC(C)C)NC(=O)[C@H](CC(C)C)NC(=O)[C@H](CCCCN)NC(=O)[C@H](CCCCN)NC(=O)[C@@H](N)CC(C)C)C(N)=O	RG	cell viability, MTT	0.5 h, pH 7.4	10.5 µM
CC(=O)c1nn(-c2ccc(Cl)cc2)c2nc3nc(-c4ccccc4)cc(-c4ccc5ccccc5n4)c3c(=O)n12	RPE-1	cell growth or viability, MTT	48 h	23.6 µM
COc1cccc2c1cc([N+](=O)[O-])c1c(C(=O)O)cc3c(c12)OCO3	HK-2	cell growth or viability, SRB	24 h	103 µM
C=C(C)CC(OC)C(O)C(=O)NC(OC)C1CC(OC(C)=O)C(C)(C)C(CC(O)C(C)C2Cc3c(C)c(O)cc(O)c3C(=O)O2)O1 (single isomer, unassigned; (+))	H522-T1	cell growth or viability	–	0.0007 µM
C[C@@H](O)[C@H](NC(=O)[C@H](CCCNC(=N)N)NC(=O)[C@H](CCCNC(=N)N)NC(=O)[C@H](CCCNC(=N)N)NC(=O)[C@@H]1CCCN1C(=O)[C@@H](N)CO)C(=O)N1CCC[C@H]1C(=O)N[C@@H](CO)C(=O)N1CCC[C@H]1C(=O)N[C@@H](CCCNC(=N)N)C(=O)N[C@@H](CCCNC(=N)N)C(=O)N[C@@H](CCCNC(=N)N)C(=O)N[C@@H](CCCNC(=N)N)C(=O)N[C@@H](CO)C(=O)N[C@@H](CCC(N)=O)C(=O)N[C@@H](CO)C(=O)N1CCC[C@H]1C(=O)N[C@@H](CCCNC(=N)N)C(=O)N[C@@H](CCCNC(=N)N)C(=O)N[C@@H](CCCNC(=N)N)C(N)=O	BT-20	cell viability, CellTiter-Blue	24 h, serum-free medium	> 100 µM
Cc1cc(C)c(-n2ccn(-c3c(C)cc(C)cc3C)c2=[Se])c(C)c1.[Cl][Ag]	LoVo MDR	MTT	72 h	2.3 ± 1 µM
C[C@H]1[C@H](OC(=O)CCC(=O)Oc2ccc(-c3cc(=S)ss3)cc2)O[C@@H]2O[C@@]3(C)CC[C@H]4[C@H](C)CC[C@@H]1[C@@]24OO3	K562/Adr	cell growth or viability, CCK-8	72 h	16.6 µM
CC(C)C[C@H](NC(=O)[C@H](CC(C)C)NC(=O)[C@H](CCC(=O)O)NC(=O)[C@H](CCC(=O)O)NC(=O)[C@H](CC(C)C)NC(=O)[C@H](Cc1c[nH]cn1)NC(=O)[C@H](Cc1c[nH]cn1)NC(=O)[C@H](CC(C)C)NC(=O)[C@H](CC(C)C)NC(=O)[C@H](CCC(=O)O)NC(=O)[C@H](CCC(=O)O)NC(=O)[C@@H](N)CC(C)C)C(=O)N[C@@H](Cc1c[nH]cn1)C(=O)N[C@@H](Cc1c[nH]cn1)C(N)=O	RG	cell viability, MTT	0.5 h, pH 7.4	> 100 µM
CC(C)C[C@H](NC(=O)[C@H](CCCCN)NC(=O)[C@H](CCCCN)NC(=O)[C@H](CC(C)C)NC(=O)[C@H](CC(C)C)NC(=O)[C@H](CCCCN)NC(=O)[C@H](CCCCN)NC(=O)[C@H](CC(C)C)NC(=O)[C@H](CC(C)C)NC(=O)[C@H](CCCCN)NC(=O)[C@H](CCCCN)NC(=O)[C@H](CC(C)C)NC(=O)[C@@H](N)CC(C)C)C(=O)N[C@@H](CCCC(=O)O)C(N)=O	HCCC9810	cell growth or viability, CCK-8	–	< 6 µM
CCCCCCN(CCCCCC)C1=[S+][Au-]2([S]1)[c]1ccccc1-c1cccc[c]12	BT-333 glioblastoma	MTT	72 h	53.7 ± 0.03 µM
O=C(Cc1ccc2ccccc2c1)N[C@H](Cc1ccccc1)C(=O)N[C@H](Cc1ccccc1)C(=O)N[C@H](Cc1ccc(O)cc1)C(=O)N[C@H](Cc1ccc(OP(=O)(O)O)cc1)C(=O)O	A2780cis	cell growth or viability, MTT	–	189 µg/mL
C=C(C)CC(OC)C(O)C(=O)NC(OC)C1CC(=NOC)C(C)(C)C(CC(O)C(C)C2Cc3c(C)c(O)cc(O)c3C(=O)O2)O1 (single isomer, unassigned; (+))	IMR-90	cell growth or viability	–	0.046 µM
COc1ccc(C(c2c(C)nn(-c3ccccc3)c2O)c2c(C)nn(-c3ccccc3)c2O)cc1OC	HEK293	cell growth or viability, MTT	48 h	> 40 µM
O=C(O)c1ccc([PH]([Au][Cl])(c2ccccc2)c2ccccc2)cc1	A2780	cell growth or viability, resazurin	72 h	11.5 µM
CC[C@H](C)[C@@H]1NC(=O)[C@H](CCCNC(=N)N)NC(=O)C[C@H](c2cccc3ccccc23)NC(=O)[C@@H]2CSSC[C@H](NC(=O)C[C@H](c3cccc4ccccc34)NC(=O)[C@H](CCCNC(=N)N)NC(=O)[C@@H]3CCCN3C(=O)[C@@H]3CCCN3C1=O)C(=O)N[C@@H](Cc1ccccc1)C(=O)N1CCC[C@H]1C(=O)N[C@@H](CC(=O)O)C(=O)N[C@@H](CC(=O)O)C(=O)N[C@@H](Cc1ccccc1)C(=O)N2	MCF7 (HER2-)	cell growth	72 h	> 50 µM
CC(C)C[C@H](NC(=O)[C@H](CCCCN)NC(=O)[C@H](CC(C)C)NC(=O)[C@H](CC(C)C)NC(=O)[C@H](CCCCN)NC(=O)[C@H](CCCCN)NC(=O)[C@H](CC(C)C)NC(=O)[C@H](CC(C)C)NC(=O)[C@H](CCCCN)NC(=O)[C@H](CC(C)C)NC(=O)[C@H](CC(C)C)NC(=O)[C@H](CCCCN)NC(=O)[C@H](CCCCN)NC(=O)[C@H](CC(C)C)NC(=O)[C@@H](N)CSSC[C@H](N)C(=O)N[C@@H](CC(C)C)C(=O)N[C@@H](Cc1c[nH]cn1)C(=O)N[C@@H](CCC(=O)O)C(=O)N[C@@H](CC(C)C)C(=O)N[C@@H](CC(C)C)C(=O)N[C@@H](CCC(=O)O)C(=O)N[C@@H](Cc1c[nH]cn1)C(=O)N[C@@H](CC(C)C)C(=O)N[C@@H](Cc1c[nH]cn1)C(=O)N[C@@H](CCC(=O)O)C(=O)N[C@@H](CC(C)C)C(=O)N[C@@H](CC(C)C)C(=O)N[C@@H](CCC(=O)O)C(=O)N[C@@H](Cc1c[nH]cn1)C(N)=O)C(N)=O	RG	cell viability, MTT	0.5 h, pH 7.4	> 100 µM
CC[C@@H](C)[C@@H](NC(=O)[C@@H](CCCCN)NC(=O)[C@@H](CC(C)C)NC(=O)[C@H](N)[C@H](C)O)C(=O)N[C@@H](C(=O)N[C@H](Cc1c[nH]c2ccccc12)C(=O)N[C@H](CS)C(=O)O)C(C)C	HEK293 tau K18 YFP biosensor	tau seeding, inhibitor	24 h, together with: Alzheimer tau fibrils	33.5 µM
COc1cc(/C=C(\C#N)C(=O)Nc2nnc(C(F)(F)F)s2)ccc1OC(=O)N1CCN(C(=O)CCCC(=O)NCCCC[C@@H]2NC(=O)[C@@H](Cc3ccc(O)cc3)NC(=O)[C@H](CC(=O)O)NC(=O)CNC(=O)[C@H](CCCNC(=N)N)NC2=O)CC1	U87	cytotoxicity, MTT	48 h	78 ± 1.3 µM
NC(=S)N/N=C/c1ccc(OCc2ccccc2)cc1	IMR-32	cell growth or viability, MTT	24 h	12 µg/mL
O=C(N=P12CN3CN(CN(C3)C1)C2)c1cccc[c]1[Pd][Br].c1cncc(P(c2cccnc2)c2cccnc2)c1	Jurkat	cytotoxicity, MTT	24 h, 1% DMSO	101 ± 20 µM
[Cl][Ag].[Se]=c1n(C2CCCCC2)ccn1C1CCCCC1	A2780	cell growth or viability	72 h, 3D culture	23.1 µM
C#CCCCC[C@H](C)C[C@@H](C)C(=O)N[C@@H](C)C(=O)N1CCC[C@H]1C(=O)N[C@H](C(=O)N[C@H](C(=O)N[C@H](C(=O)N[C@@H](Cc1ccccc1)C(=O)N1CCC[C@H]1C(=O)N1CCC[C@H]1C(C)=O)C(C)C)C(C)C)C(C)C	HEK293	cell growth or viability, SRB	–	328 µM
CC(C)C[C@H](NC(=O)[C@H](CC(C)C)NC(=O)[C@H](CC(=O)O)NC(=O)[C@H](CCCCN)NC(=O)[C@H](Cc1ccccc1)NC(=O)CN)C(=O)N[C@@H](CCCCN)C(=O)N[C@H]1CSCc2ccc(cc2)CSC[C@@H](C(=O)N[C@@H](CC(C)C)C(=O)N[C@H](C(=O)N[C@@H](CCCCN)C(=O)N[C@H](C(=O)N[C@H](C(=O)N[C@@H](CC(C)C)C(=O)N[C@@H](Cc2ccccc2)C(N)=O)C(C)C)[C@@H](C)O)C(C)C)NC(=O)[C@H](CCCCN)NC(=O)[C@H](C)NC(=O)[C@H](C)NC1=O	U87	cell proliferation, CCK-8	48 h	12 µM
Cc1cc(C)c(N2CCN(c3c(C)cc(C)cc3C)C2=[Se])c(C)c1.[Cl][Ag]	A-431	cell growth or viability, MTT	72 h	0.5 µM
CC(=O)O[C@H]1C[C@@H](O)[C@H]2[C@@H]3CC[C@H]4CC(=O)C=C(CO)[C@]4(C)[C@H]3CC[C@@]21C	human PBMC	T-cell proliferation, Alamar Blue	48 h, together with: phytohemagglutinin-L 7.5 µg/mL	10.2 ± 0.01 µg/mL
CC(C)C[C@H](NC(=O)[C@H](CCCCN)NC(=O)[C@H](CC(C)C)NC(=O)[C@H](CC(C)C)NC(=O)[C@H](CCCCN)NC(=O)[C@H](CCCCN)NC(=O)[C@H](CC(C)C)NC(=O)[C@H](CC(C)C)NC(=O)[C@H](CCCCN)NC(=O)[C@H](CC(C)C)NC(=O)[C@H](CC(C)C)NC(=O)[C@H](CCCCN)NC(=O)[C@H](CCCCN)NC(=O)[C@H](CC(C)C)NC(=O)[C@@H](N)CSSC[C@H](N)C(=O)N[C@@H](CC(C)C)C(=O)N[C@@H](CCC(=O)O)C(=O)N[C@@H](CCC(=O)O)C(=O)N[C@@H](CC(C)C)C(=O)N[C@@H](CC(C)C)C(=O)N[C@@H](Cc1c[nH]cn1)C(=O)N[C@@H](Cc1c[nH]cn1)C(=O)N[C@@H](CC(C)C)C(=O)N[C@@H](CCC(=O)O)C(=O)N[C@@H](CCC(=O)O)C(=O)N[C@@H](CC(C)C)C(=O)N[C@@H](CC(C)C)C(=O)N[C@@H](Cc1c[nH]cn1)C(=O)N[C@@H](Cc1c[nH]cn1)C(N)=O)C(N)=O	HK-2	cell growth or viability, MTT	pH 6	13 µM
COc1cc(C=CC(=O)CC(=O)C=Cc2ccc(OC(=O)CCC(=O)OC3OC4OC5(C)CCC6C(C)CCC(C3C)C46OO5)c(OC)c2)ccc1OC(=O)CCC(=O)OC1OC2OC3(C)CCC4C(C)CCC(C1C)C24OO3 (centres unmarked)	RPMI-7951	cell viability, MTT	24 h, without deferoxamine	1.37 ± 0.9 µM
O=C(Cc1ccc2ccccc2c1)N[C@H](Cc1ccccc1)C(=O)N[C@H](Cc1ccc(O)cc1)C(=O)N[C@H](Cc1ccccc1)C(=O)N[C@H](Cc1ccc(O)cc1)C(=O)O	A2780cis	cell growth or viability, MTT	–	> 500 µg/mL
CC(C)C[C@H](NC(=O)[C@H](CCCCN)NC(=O)[C@H](CC(C)C)NC(=O)[C@H](CC(C)C)NC(=O)[C@H](CCCCN)NC(=O)[C@H](CCCCN)NC(=O)[C@H](CC(C)C)NC(=O)[C@H](CC(C)C)NC(=O)[C@H](CCCCN)NC(=O)[C@H](CC(C)C)NC(=O)[C@H](CC(C)C)NC(=O)[C@H](CCCCN)NC(=O)[C@H](CCCCN)NC(=O)[C@H](CC(C)C)NC(=O)[C@@H](N)CSSC[C@H](N)C(=O)N[C@@H](CC(C)C)C(=O)N[C@@H](CCC(=O)O)C(=O)N[C@@H](Cc1c[nH]cn1)C(=O)N[C@@H](CC(C)C)C(=O)N[C@@H](CC(C)C)C(=O)N[C@@H](CCC(=O)O)C(=O)N[C@@H](Cc1c[nH]cn1)C(=O)N[C@@H](CC(C)C)C(=O)N[C@@H](CCC(=O)O)C(=O)N[C@@H](Cc1c[nH]cn1)C(=O)N[C@@H](CC(C)C)C(=O)N[C@@H](CC(C)C)C(=O)N[C@@H](CCC(=O)O)C(=O)N[C@@H](Cc1c[nH]cn1)C(N)=O)C(N)=O	HK-2	cell growth or viability, MTT	pH 7.4	> 100 µM

Excerpt of the above:
SMILES	cell line	assay	setting	IC50
CC[C@@H](C)[C@@H](NC(=O)[C@@H](CCCCN)NC(=O)[C@@H](CC(C)C)NC(=O)[C@H](N)[C@H](C)O)C(=O)N[C@@H](C(=O)N[C@H](Cc1c[nH]c2ccccc12)C(=O)N[C@H](CS)C(=O)O)C(C)C	HEK293 tau K18 YFP biosensor	tau seeding, inhibitor	24 h, together with: Alzheimer tau fibrils	33.5 µM
O=C(Cc1ccc2ccccc2c1)N[C@H](Cc1ccccc1)C(=O)N[C@H](Cc1ccccc1)C(=O)N[C@H](Cc1ccc(O)cc1)C(=O)N[C@H](Cc1ccc(OP(=O)(O)O)cc1)C(=O)O	A2780cis	cell growth or viability, MTT	–	189 µg/mL
C#CCCCC[C@H](C)C[C@@H](C)C(=O)N[C@@H](C)C(=O)N1CCC[C@H]1C(=O)N[C@H](C(=O)N[C@H](C(=O)N[C@H](C(=O)N[C@@H](Cc1ccccc1)C(=O)N1CCC[C@H]1C(=O)N1CCC[C@H]1C(C)=O)C(C)C)C(C)C)C(C)C	HEK293	cell growth or viability, SRB	–	328 µM
CC(C)C[C@H](NC(=O)[C@H](CCCCN)NC(=O)[C@H](CCCCN)NC(=O)[C@H](CC(C)C)NC(=O)[C@H](CC(C)C)NC(=O)[C@H](CCCCN)NC(=O)[C@H](CCCCN)NC(=O)[C@H](CC(C)C)NC(=O)[C@H](CC(C)C)NC(=O)[C@H](CCCCN)NC(=O)[C@H](CCCCN)NC(=O)[C@H](CC(C)C)NC(=O)[C@@H](N)CC(C)C)C(=O)N[C@@H](CCCC(=O)O)C(N)=O	HCCC9810	cell growth or viability, CCK-8	–	< 6 µM
CC(=O)O[C@H]1C[C@@H](O)[C@H]2[C@@H]3CC[C@H]4CC(=O)C=C(CO)[C@]4(C)[C@H]3CC[C@@]21C	human PBMC	T-cell proliferation, Alamar Blue	48 h, together with: phytohemagglutinin-L 7.5 µg/mL	10.2 ± 0.01 µg/mL
